Published values of several laboratories.
Compare with care: the assays were run in different laboratories. “And” joins repeats or separate records; there may be more than shown. ± marks the error that the study gave.
WD repeat-containing protein 91 WD40 domain, residues 392–747: WD repeat-containing protein 91, WD40 domain, residues 392–747 (Homo sapiens, UniProt A4D1P6)
Chain of UniProt A4D1P6 (whole entry, looked up): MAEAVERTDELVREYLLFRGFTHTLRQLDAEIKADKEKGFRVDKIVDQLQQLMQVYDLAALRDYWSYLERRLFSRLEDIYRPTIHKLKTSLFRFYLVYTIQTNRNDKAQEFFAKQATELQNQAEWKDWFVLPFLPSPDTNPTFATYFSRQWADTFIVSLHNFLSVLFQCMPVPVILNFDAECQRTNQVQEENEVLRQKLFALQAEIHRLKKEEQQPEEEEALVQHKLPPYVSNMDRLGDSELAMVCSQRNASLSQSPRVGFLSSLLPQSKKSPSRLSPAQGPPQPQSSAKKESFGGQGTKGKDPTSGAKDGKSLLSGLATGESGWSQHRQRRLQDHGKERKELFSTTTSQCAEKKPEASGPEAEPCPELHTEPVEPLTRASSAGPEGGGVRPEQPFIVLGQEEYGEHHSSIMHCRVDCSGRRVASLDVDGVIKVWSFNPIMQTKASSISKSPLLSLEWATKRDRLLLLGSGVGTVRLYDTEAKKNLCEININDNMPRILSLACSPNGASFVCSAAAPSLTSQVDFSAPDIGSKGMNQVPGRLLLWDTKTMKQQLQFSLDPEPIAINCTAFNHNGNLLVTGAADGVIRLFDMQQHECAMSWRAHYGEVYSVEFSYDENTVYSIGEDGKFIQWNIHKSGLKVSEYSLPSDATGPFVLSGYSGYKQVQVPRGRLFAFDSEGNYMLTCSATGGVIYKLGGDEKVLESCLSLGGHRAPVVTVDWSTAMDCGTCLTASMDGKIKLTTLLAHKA
Genome polyprotein NS3 helicase domain: Genome polyprotein, NS3 helicase domain (Hepatitis C virus genotype 1b, UniProt Q9WMX2)
Glutamate receptor 2: Glutamate receptor 2 (Homo sapiens, UniProt P42262)
CDK2: Cyclin-dependent kinase 2 (CDK2, Homo sapiens, UniProt P24941)
Chain of UniProt O76090 (whole entry, unmodified, looked up): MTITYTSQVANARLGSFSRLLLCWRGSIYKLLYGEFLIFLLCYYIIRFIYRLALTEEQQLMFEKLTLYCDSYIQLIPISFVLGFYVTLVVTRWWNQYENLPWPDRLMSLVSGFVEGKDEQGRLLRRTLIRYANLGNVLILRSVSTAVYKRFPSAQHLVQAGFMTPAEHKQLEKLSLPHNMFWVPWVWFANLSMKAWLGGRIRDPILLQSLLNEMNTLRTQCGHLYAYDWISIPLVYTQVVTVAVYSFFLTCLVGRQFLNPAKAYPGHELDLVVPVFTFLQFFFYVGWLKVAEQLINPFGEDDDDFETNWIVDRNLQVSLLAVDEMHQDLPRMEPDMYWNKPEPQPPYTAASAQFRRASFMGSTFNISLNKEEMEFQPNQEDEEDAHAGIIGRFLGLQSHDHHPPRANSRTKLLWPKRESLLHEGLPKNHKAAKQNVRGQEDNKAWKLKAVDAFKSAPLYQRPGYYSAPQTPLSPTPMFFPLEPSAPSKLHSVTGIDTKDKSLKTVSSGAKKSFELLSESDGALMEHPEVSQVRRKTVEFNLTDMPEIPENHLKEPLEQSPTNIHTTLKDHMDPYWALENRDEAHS
Chain of UniProt Q16774 (whole entry, unmodified, looked up): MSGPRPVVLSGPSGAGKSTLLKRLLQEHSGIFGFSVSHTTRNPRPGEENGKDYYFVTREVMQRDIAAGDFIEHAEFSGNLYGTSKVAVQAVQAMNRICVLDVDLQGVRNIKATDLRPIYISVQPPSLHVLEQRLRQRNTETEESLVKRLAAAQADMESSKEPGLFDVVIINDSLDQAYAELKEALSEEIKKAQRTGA
Chain of UniProt P51575 (whole entry, unmodified, looked up): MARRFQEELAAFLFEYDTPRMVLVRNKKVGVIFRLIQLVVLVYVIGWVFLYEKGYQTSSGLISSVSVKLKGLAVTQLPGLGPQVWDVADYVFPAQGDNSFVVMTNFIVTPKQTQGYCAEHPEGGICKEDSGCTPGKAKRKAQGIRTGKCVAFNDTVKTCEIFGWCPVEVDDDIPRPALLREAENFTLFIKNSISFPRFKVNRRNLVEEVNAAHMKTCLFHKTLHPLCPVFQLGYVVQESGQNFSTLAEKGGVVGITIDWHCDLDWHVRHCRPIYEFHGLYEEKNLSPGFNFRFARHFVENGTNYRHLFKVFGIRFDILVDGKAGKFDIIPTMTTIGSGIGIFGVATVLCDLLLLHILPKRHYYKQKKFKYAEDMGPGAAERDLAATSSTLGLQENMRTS

For `N#Cc1ccc(Nc2cccc(C(=O)NC3CCc4cc(F)ccc43)c2)cc1` (stereo not shown), the binding was 71% and 93% (WD repeat-containing protein 91 WD40 domain, residues 392–747; SPR; 45 µM).
For `CC[C@@H]1[C@H](F)C(=O)N[C@@H]1COc1nccc2cc(C(N)=O)c(OC)cc12`, the inhibition was 17.1% (TAOK2 (Homo sapiens, UniProt Q9UL54); ATP probe binding, KiNativ profiling, item: Lys2 probe site; THP-1 cell lysate; 0.01 mM).
Under “log fold enrichment”, `CCCCC[S+]([O-])c1n[nH]c(N)n1` (stereo not shown) is recorded as -0.0585 (SPRY domain-containing SOCS box protein 2, SPRY domain (Homo sapiens, UniProt Q99619); binding, affinity selection mass spectrometry; reference: other proteins in batch).
With `Cc1cc(O)c2c(c1)C(=O)c1cc(O)cc(O)c1C2=O` the inhibition was 0% (Genome polyprotein NS3 helicase domain; DNA binding, inhibitor; hepatitis C virus; 100 µM, added: Cy5-dT15 DNA).
`Nc1ncnc2c1ncn2[C@@H]1O[C@H](C[C@@H](N)CC[C@H](N)C(=O)O)[C@@H](O)[C@H]1O` — result for “ΔH of binding”: -12.7 ± 0.284 kcal/mol (O-methyltransferase (Sorghum bicolor, UniProt A0A1B6PFV1); isothermal titration calorimetry; concentration not given, apo protein).
For `CCN(CC)CCOc1ccc2c(c1)C(=O)c1cc(OCCN(CC)CC)ccc1-2`, the Hill slope was 0.84 (ACHE (Homo sapiens, UniProt P22303); enzyme activity, colorimetric; top 100, bottom 0 fixed).
For `COC1=C(OC)C(=O)C(CC=C(C)C)=C(C)C1=O`, the kcat was 9.81 ± 0.33 s⁻¹ (ancestral FSP1; oxidoreductase activity, substrate; added: co-substrate 100 µM fixed).
For `O=C1NC(=O)C(c2ccccc2)(c2ccccc2)N1`, the activation was 4% (Glutamate receptor 2; ion current, agonist, SyncroPatch patch clamp; HEK293; 3 µM).
With `Cc1ncc(CO)c(CN)c1O` the product formation was 1.58 µM (N-alpha-acetyltransferase 80 (NAA80, Homo sapiens, UniProt Q93015); substrate, DTNB; 2 mM, 30 min, 37 °C, added: acetyl-CoA 500 µM).
`CC[C@@H]1C(=O)OC[C@@H]1Cc1cncn1C` gave an inhibition of 1% (Genome polyprotein NS3 helicase domain; DNA binding, inhibitor; hepatitis C virus; 100 µM, added: Cy5-dT15 DNA).
Under “normalised MST signal”, `O=C(O)C1CCCNC1` (stereo not shown) is recorded as 0.64 (SLC6A6 (Homo sapiens, UniProt P31641, Y138A); binding, microscale thermophoresis; 62.5 µM, room temperature, added: 50 nM labelled protein; higher = more binding).
For `COc1ccc2c(c1)c(CC(=O)O)c(C)n2Cc1ccc(Cl)cc1`, the inhibition was 0% (Genome polyprotein NS3 helicase domain; DNA binding, inhibitor; hepatitis C virus; 100 µM, added: Cy5-dT15 DNA).
`CC[C@H](C)[C@H](NC(=O)[C@H](CCCCN)NC(=O)CNC(=O)[C@@H](NC(=O)[C@@H](NC(=O)[C@H](CCSC)NC(=O)[C@H](Cc1c[nH]cn1)NC(=O)CN)[C@@H](C)O)C(C)C)C(=O)N[C@@H](Cc1ccc(O)cc1)C(=O)N[C@@H](C)C(=O)N[C@@H](C)C(=O)N[C@@H](CCSC)C(=O)N[C@@H](CCSC)C(=O)N[C@H](C(=O)N[C@@H](CCSC)C(=O)N[C@@H](CCC(=O)O)C(=O)N[C@@H](Cc1ccc(O)cc1)C(=O)N[C@@H](C)C(=O)N[C@@H](CCCNC(=N)N)C(=O)N[C@@H](CCC(N)=O)C(=O)N[C@@H](CO)C(=O)N[C@@H](CCCCN)C(=O)N[C@@H](C)C(=O)N[C@@H](CCCCN)C(=O)N[C@@H](CCCCN)C(=O)N[C@@H](CC(C)C)C(=O)N[C@@H](CCC(N)=O)C(=O)N[C@@H](C)C(=O)N[C@@H](CCSC)C(=O)N[C@@H](CCCNC(=N)N)C(=O)O)[C@@H](C)CC` gave a ΔS of 18 ± 1 cal/mol/K (Calmodulin-1, Ca2+-bound N-lobe (CALM1, Homo sapiens, UniProt P0DP23); binding, isothermal titration calorimetry; pH 7.4, 15 °C, N-lobe, CaV2.1 IQ domain, added: Ca2+).
`COC(=O)CCc1ccc(C(=O)N/N=C/C(Br)=C/c2ccccc2)cc1` — result for enzyme activity: “no effect” (HDAC1 (Homo sapiens, UniProt Q13547); inhibitor, fluorogenic; 5 and 10 µM; reference: SAHA).
With `CCN(CC)Cc1cn(Cc2ccc(C(=O)N[C@@H]3CCc4c(C#N)cccc43)cc2)nn1` the binding was 103% and 96% (WD repeat-containing protein 91, residues 392–747 (Homo sapiens, UniProt A4D1P6); SPR dose-response titration; concentration not given, 1:1 binding model).
`Nc1ccc(C(=O)O)cc1` has a current density of -19.1 pA/pF and -5.56 pA/pF and -3.92 pA/pF and -8.21 pA/pF and -11.7 pA/pF and -11 pA/pF (BEST1, with wild-type BEST1 (Homo sapiens, UniProt O76090, A10T); whole-cell patch clamp; HEK293 co-expressing WT and A10T mutant; concentration not given, membrane potential -40 mV).
The ΔH of `CC[C@H](C)[C@H](NC(=O)[C@H](CCCCN)NC(=O)CNC(=O)[C@@H](NC(=O)[C@@H](NC(=O)[C@H](CCSC)NC(=O)[C@H](Cc1c[nH]cn1)NC(=O)CN)[C@@H](C)O)C(C)C)C(=O)N[C@@H](Cc1ccc(O)cc1)C(=O)N[C@@H](C)C(=O)N[C@@H](C)C(=O)N[C@@H](CCSC)C(=O)N[C@@H](CCSC)C(=O)N[C@H](C(=O)N[C@@H](CCSC)C(=O)N[C@@H](CCC(=O)O)C(=O)N[C@@H](Cc1ccc(O)cc1)C(=O)N[C@@H](Cc1ccc(O)cc1)C(=O)N[C@@H](CCCNC(=N)N)C(=O)N[C@@H](CCC(N)=O)C(=O)N[C@@H](CO)C(=O)N[C@@H](CCCCN)C(=O)N[C@@H](C)C(=O)N[C@@H](CCCCN)C(=O)N[C@@H](CCCCN)C(=O)N[C@@H](CC(C)C)C(=O)N[C@@H](CCC(N)=O)C(=O)N[C@@H](C)C(=O)N[C@@H](CCSC)C(=O)N[C@@H](CCCNC(=N)N)C(=O)O)[C@@H](C)CC` is reported as -4.31 ± 0.35 kcal/mol (Calmodulin-1, Ca2+-bound C-lobe (CALM1, Homo sapiens, UniProt P0DP23); binding, isothermal titration calorimetry; pH 7.4, 15 °C, C-lobe, CaV2.1 IQ domain, added: Ca2+).
The specific binding of `Nc1ncnc2c1ncn2[C@@H]1O[C@H](COP(=O)(O)CP(=O)(O)OP(=O)(O)O)[C@@H](O)[C@H]1O` is reported as 2180 CCPM and 2160 CCPM (P2X purinoceptor 1 (P2RX1, Homo sapiens, UniProt P51575, K136A); saturation binding; HEK293; 52 nM).
`CN1C(=O)C(c2c(-c3ccc(Cl)cc3)[nH]c3c2c(=O)[nH]c(=O)n3C)c2ccccc21` (stereo not shown) has an SPR response of 28.5 RU (WD repeat-containing protein 91 (Homo sapiens, UniProt A4D1P6); binding, SPR steady state; 7.5 µM).
`O=C(COP(=O)(O)O)[C@@H](O)[C@H](O)[C@H](O)COP(=O)(O)O`: “thermal stability ratio” 0.573 (ADP-ribosylation factor 3 (ARF3, Homo sapiens, UniProt P61204); thermal proteome profiling, item: ARF3; HepG2 cell lysate; concentration not given, 57 over 37 °C, mean; reference: compound over control).
Under “surface TFRC expression”, `CC[C@@H](C)[C@@H](NC(=O)[C@@H](Cc1ccc(O)cc1)NC(=O)[C@H]1CCCN1C(=O)[C@@H](CCCNC(=N)N)NC(=O)[C@H](N)Cc1c[nH]cn1)C(=O)N[C@H](C)C(=O)N[C@H](Cc1c[nH]cn1)C(=O)N[C@H](CCCNC(=N)N)C(=O)N[C@@H](C(=O)N[C@H](Cc1ccc(O)cc1)C(=O)N[C@H](CO)C(=O)N[C@H](Cc1ccccc1)C(N)=O)C(C)C` is recorded as 0.987 (Transferrin receptor protein 1 (Tfrc, Mus musculus, UniProt Q62351); flow cytometry; DC2.4; 24 h, pH 6, replicate 2, unit not given; reference: 0 h).
`O=C(O)c1ccc(Nc2ncc3c(n2)-c2ccc(Cl)cc2C(c2c(F)cccc2F)=NC3)cc1` has a remaining activity of 98% (human DYRK2(h); kinase activity; 1 µM).
`O=c1nc(SCc2cc(F)cc(C(F)(F)F)c2)nc(SCc2ccc3sccc3c2)[nH]1` — result for “ATP hydrolysis rate”: 0.259 µM/min and 0.529 µM/min (TOP2A (Homo sapiens, UniProt P11388); ATPase activity; 15.6 µM, added: ATP 0.025 mM).
The selectivity ratio of `COc1c(-c2ccccc2)oc2cc(O)cc(O)c2c1=O` is reported as 0.77 (Estrogen receptor (ESR1, Homo sapiens, UniProt P03372); array formation; PRL-HeLa; reference: EC50 ERβ over EC50 ERα).
For `Cn1c(=O)c2[nH]cnc2n(C)c1=O`, the potentiation was 98% (Glutamate receptor 2; ion current, positive allosteric modulator, SyncroPatch patch clamp; HEK293; 10 µM).
`Cc1c(NC(=O)C2CCCN2S(=O)(=O)c2ccccc2)c(=O)n(-c2ccccc2)n1C` (stereo not shown) has a Kd of > 100 µM (CDK2; binding).
With `O=C1Cc2c([nH]c3ccc(Br)cc23)-c2ccccc2N1` the inhibition was 1% (Genome polyprotein NS3 helicase domain; DNA binding, inhibitor; hepatitis C virus; 100 µM, added: Cy5-dT15 DNA).
`CC(=O)N[C@H](C(=O)N[C@@H](CC(N)=O)C(=O)N[C@@H](CCCCN)C(=O)N1CCC[C@H]1C(=O)N[C@@H](CC(C)C)C(=O)N1CCC[C@H]1C(=O)N1CCC[C@H]1C(=O)N[C@@H](CC(C)C)C(=O)N1CCC[C@H]1C(=O)N[C@H](C(=O)N[C@@H](C)C(N)=O)C(C)C)C(C)C` has an enthalpy change of -8.461 ± 0.0239 kcal/mol (Tyrosine-protein kinase Fyn, SH3 domain (FYN, Homo sapiens, UniProt P06241); binding, isothermal titration calorimetry; 50 mM sodium phosphate, 100 mM NaCl; concentration not given, pH 7.0, 25 °C).
For `O=C(Nc1ccc(F)cc1)Nc1cccc2c1CCN(C(=O)c1cc3cccn3cn1)C2`, the binding was -44% and -13% (WD repeat-containing protein 91 WD40 domain, residues 392–747; SPR; 45 µM).
For `COC(=O)c1ccc(NC(=O)CSc2nnc(-c3ccc(NC(C)=O)cc3)n2C)cc1`, the Kd was > 100 µM (CDK2; binding).
`Nc1c(S(=O)(=O)O)cc(Nc2ccc(Nc3nc(Cl)nc(Nc4cccc(S(=O)(=O)O)c4)n3)c(S(=O)(=O)O)c2)c2c1C(=O)c1ccccc1C2=O` gave an inhibition of 86% (Genome polyprotein NS3 helicase domain; DNA binding, inhibitor; hepatitis C virus; 100 µM, added: Cy5-dT15 DNA).
The reaction rate of `Nc1nc2c(ncn2[C@@H]2O[C@H](COP(=O)(O)O)[C@@H](O)[C@H]2O)c(=O)[nH]1` is reported as 5.08 s⁻¹ and 6.37 s⁻¹ and 4.47 s⁻¹ (GUK1 (Homo sapiens, UniProt Q16774, S37A); enzyme activity, NADH-coupled; 2000 µM).
With `NCCCCN=C(N)N` the inhibition was 1% (Genome polyprotein NS3 helicase domain; DNA binding, inhibitor; hepatitis C virus; 100 µM, added: Cy5-dT15 DNA).
`CCCCSC[C@H]1CN(Cc2c[nH]c3c(N)ncnc23)C[C@@H]1O` gave a k3 of 0.3 ± 0.03 min⁻¹ (Aminodeoxyfutalosine nucleosidase (Helicobacter pylori, UniProt Q9ZMY2); forward isomerization rate).
